Measured values from different studies.
Every numbered part comes from another study and shows a few of its results, in no order.

Block 1
Target: Fragile X messenger ribonucleoprotein 1, C-terminal low-complexity region (Fmr1, Mus musculus, UniProt P35922)
Method: RNA Bind-n-Seq
Molecule type: RNA
Matrix: in vitro
Concentration: 200 nM
Notes: whole 134-nt RNA, ends assumed
Together with: 150 mM LiCl
Relative to: input library
Direction: higher = stronger binding
Quantity: log2 enrichment
Library: 7-deaza-guanosine replaces G
All sequences stand within: GGGAGUUCUACAGUCCGACGAUC … UGGAAUUCUCGGGUGUCAAGG
ACCAUGCAGGUGGGCAUCUUUGGGAAGUGGGGCAAAAGGGGGAUAGGGAGGGGGGUAACACUUUGGGAACAGGUGGUCCCAGGUCGUUUC: 1.26
ACCAUGCAGGUGGGCAUCUUUGGGAAGUGGGGCAAGGGGGGGAUAGGGAGGGGGGUAACACUUUGGGAACAGGUGGUCCCAAGUCGUUUC: 1.01
AAGUCCUGUGCUACACAUCGUAUGUACCGAAUCGGGUGGGAAAAAGGGUUUUUGGGAAAGUAUUAUGUUACGCCGUUCGGAUCUGCACUU: -1.88
AGUCCUGUGCUACACAUCGUAUGUACCGAAUCGGAAAAAGGGGAAAAAGGGAAAAAGGAAAGUAUUAUGUUACGCCGUUCGGAUCUGCAC: -0.849
GGGGAGGUGGAUUUUGUUUAUUUUUUUAGCUCAUUUCCAGGGGUGGGAAUUUUUUUUUAAUAUGUGUCAUGAAUAAAGUUGUUUUUGAAA: 0.883
CUGUGCUACACAUCGUAUGUACCGAAUCGGGCCCCCCCGGGCCCCCCCGGGCCCCCCCGGGGAAAGUAUUAUGUUACGCCGUUCGGAUCU: -0.588
AAGUCCUGUGCUACACAUCGUAUGUACCGAAUCGGGAAAAGGGGAAAAGGAAAAGGAAAGUAUUAUGUUACGCCGUUCGGAUCUGCACUU: -0.565
CUCAAGUCCUGUGCUACACAUCGUAUGUACCGAAUCGGGCCGGGCCGGGGCCGGAAAGUAUUAUGUUACGCCGUUCGGAUCUGCACUUCC: 1.05
UCCUGUGCUACACAUCGUAUGUACCGAAUCGGGUUUUUGGGUUUUUGGGGUUUUUGGGGAAAGUAUUAUGUUACGCCGUUCGGAUCUGCA: -1.02
CUCAAGUCCUGUGCUACACAUCGUAUGUACCGAAUCGGGAAAGGAAAGGAAAGGAAAGUAUUAUGUUACGCCGUUCGGAUCUGCACUUCC: -0.758
GCCACUGUUCACCAGUCCUACCCACACCAUGCCACACAGCUCCAUGCCCACCAGCCGCAGCCGGCUACCACGCCUACUGGAAGCCAGCCG: 0.916

Block 2
Target: Hepatocyte nuclear factor 3-alpha (Foxa1, Mus musculus, UniProt P35582, residues 1-468, full length assumed)
Method: EMSA with sequencing
Molecule type: double-stranded DNA, one strand shown
Matrix: in vitro
Concentration: 10 and 20 nM
Notes: whole designed probe, mean of two concentrations, ends assumed
Relative to: negative control set to 0
Direction: higher = stronger binding
Quantity: normalised bound fraction
All sequences stand within: GTGAGCGGTGCCCATTGATGGGGAAC … TTTCACTGGGATCGTGGGGAC
Construct (chain): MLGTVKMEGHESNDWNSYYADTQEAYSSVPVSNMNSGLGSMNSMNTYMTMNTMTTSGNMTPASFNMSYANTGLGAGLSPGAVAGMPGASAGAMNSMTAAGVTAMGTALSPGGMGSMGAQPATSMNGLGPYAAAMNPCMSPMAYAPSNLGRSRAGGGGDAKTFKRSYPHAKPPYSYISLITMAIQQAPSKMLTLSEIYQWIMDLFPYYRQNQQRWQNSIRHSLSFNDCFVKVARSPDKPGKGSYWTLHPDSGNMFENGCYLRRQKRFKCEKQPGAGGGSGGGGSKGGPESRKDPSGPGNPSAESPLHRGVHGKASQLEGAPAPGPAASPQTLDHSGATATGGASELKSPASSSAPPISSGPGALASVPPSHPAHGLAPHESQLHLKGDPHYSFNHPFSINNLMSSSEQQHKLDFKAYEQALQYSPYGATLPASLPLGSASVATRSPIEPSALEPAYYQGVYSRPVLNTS
GACAGTACATGTTTTAGGATTTTTGGACCACACAGTCTCTGTCACAATGACTCAGCTTTGCCATTGTAGCGTGCAAACAGCCACAAACCATATGCAAACAAATGTATGCCAATAAAACTTGAGGGTGTGGTTATTTACAAAAGCAGGAGGACAGTGGAGTTGGCTTGCAGACAGTCATTTGCAGAGCCCTGAT: 0.39 ratio
ATCTTCCCCCTCTTCCTTGCCCCACCAGCTCACCTACGGGGGTTATTTGCAGATAGGAAAATAAATAAAGCCGGCATTCGTTAACCCTCTTCTGGCGCAAACTGCTGTTTGCTCTGGATGAATCATGGTCCTTTGGCGACGCCAGGCTCCGGGAGAGCAAAGCACCGTGTCAGGGCCATGATCCGGGCTCGCC: 0.333 ratio
ATAATCTGAGGTGGCGACTGGCCAGATAGCCTGCCCCTACTCACTCTGGCTATAAAATAAGCCTACAGTATCCACAAGGGGAAATACTAACAGTGTAAACAAGCACATCAAGGTGCAGTCAAAGAAGCCAGGTCCCCACTGATGAGATGAAGAAAATAACCACCTAAGTCTCAGGTCCCTGTATCTGCCTAAT: 0.319 ratio
GTAACTACAGTCTCAACCTGCCACATTTTATCATAGGATCAAATCCAGTAATAAAATAATGAGTCTTGGAGGGCAGGCCAGACAGCTCATCTGTGTTTACTGAAAGCATCCAGCATATCTTATGAGAGAGCTCGTGCCAAACAGATGGGTGGCCGCCCTCCCTCATCTGCCTGCCTGAGGCTTGCCCAACTGC: 0.1 ratio
GTCAAAAAAATATATATATGGTAAATTTGAAGAATGGTTAAAGAAGTGGGTGAACAGCCTTGGCATTTTCTCAACACTATATTTTTTTTGGTTGTTTACTTTGTTTTTTCTTGTAATTAAGTAATAATAAAAAGTTCAATAACAACAGCTCACTTTTTTGAAGAATGGTTAAAGAAGTGGGTGAGCAGCCTTG: 0.359 ratio
ATCTTCCCCCTCTTCCTTGCCCCACCAGCTCACCTTCCCGGGTTATTTGCACAAAGGAAAATAAATAAAGCCGGCATTCGTTAACGCAGTTCACGCGCATACTGCTGTTTGCTCTGGATCTAACATGGTCCTTTGGCGACGCCAGGCTCCGGGAGAGCAAAGCACCGTGTCAGGGCCATGATCCGGGCTCGCC: 0.375 ratio

Block 3
Target: Centromere-binding protein 1, full length, His-tagged (CBF1, Saccharomyces cerevisiae, UniProt P17106, residues 1-351)
Chain of UniProt P17106 (whole entry, looked up): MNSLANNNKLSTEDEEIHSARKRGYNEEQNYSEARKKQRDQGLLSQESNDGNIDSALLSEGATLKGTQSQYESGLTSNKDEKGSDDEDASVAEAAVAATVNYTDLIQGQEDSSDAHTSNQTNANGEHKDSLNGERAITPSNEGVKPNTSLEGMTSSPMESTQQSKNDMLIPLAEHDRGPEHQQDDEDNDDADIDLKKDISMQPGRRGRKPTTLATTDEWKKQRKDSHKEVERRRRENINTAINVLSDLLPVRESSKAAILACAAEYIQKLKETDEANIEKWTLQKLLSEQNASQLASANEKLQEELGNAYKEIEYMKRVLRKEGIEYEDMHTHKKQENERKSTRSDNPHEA
Method: competition protein-binding microarray
Molecule type: double-stranded DNA, one strand shown
Matrix: in vitro
Concentration: 2 µM
Notes: whole 60-bp probe, lowest competitor level
Together with: Pho4 competitor, 0.05 µM
Direction: higher = stronger binding
Quantity: fluorescence intensity
All sequences stand within: … GTCTTGATTCGCTTGACGCTGCTG
ATTGTTAAAGTAATCCACGTGTAGTTGATTATTGAT: 684 a.u.
AAGTGTCCTGCATTCCATGTGAAAGTTAAATAATCT: 118 a.u.
CCAAGGATTGGGTGGCATGTGATATCCAGTCTTGAG: 403 a.u.
CTCTTTGGTCTTGGCCAGAGGTCCCAGAGTCGAAAA: 48.5 a.u.
TGTACAGAAAGAAAATCCGTGATGGTTTAATGGTCA: 85.8 a.u.
CTTCTGTAAATTTGTGTTGTGGGTGGACGCGCCCCG: 93.2 a.u.
CGTCCTAGTGATTTTCACGTGGTTTCCATGAGGAAG: 921 a.u.
GCTTTCGATTTTCCTCACGTGACGGCGTTTCTTGGC: 7040 a.u.
ACAGTATATTCCAAACATGTGTTAATCAAGCGTTGA: 249 a.u.
GCCAGCCGGTGCGGCCACGTGTTGAATCTTGACTTT: 896 a.u.
AGACTTACCAGAATCGACATGACAGATAACGACAAG: 86.4 a.u.
TGCGCAACAACTTGTCACCCTACTTTATGTCTAGAA: 76.4 a.u.
CGTCCTAGTGATTGCATAGTGGGTGCCATGAGGAAG: 83.3 a.u.
CTAACGAAGGTTTGAGCAGTGGGTGACAAGCCAAGT: 79.5 a.u.
AGGGCGGGAATTTCACATGTGGCTTTTTGCATAATC: 119 a.u.
CTGACGGGTTCTGGACACGTAGGCAATCCATATTGG: 64.1 a.u.
CTAACGAAGGTTTGACGGGTGGGTGACAAGCCAAGT: 72.6 a.u.
ATAGCATCAACCGCACACATGATTAGGATGTAGACG: 262 a.u.
CATACCCAACCTTGTTCGGTGGGTGAAGATATTTGT: 78.8 a.u.
TTCGGGTATCTTGTTTATGTGACGCTCTGACCCAGA: 67.4 a.u.

Block 4
Target: RNA binding protein fox-1 homolog 2, RRM domain, GST-SBP tag (RBFOX2, Homo sapiens, UniProt O43251-10, residues 100-194)
Method: RNA Bind-n-Seq
Molecule type: RNA
Matrix: in vitro
Concentration: 365 nM
Notes: natural RNA segment, single round, ends assumed
Relative to: no-protein control
Direction: higher = stronger binding
Quantity: RBNS enrichment (R)
All sequences stand within: GGGAGUUCUACAGUCCGACGAUC … UGGAAUUCUCGGGUGCCAA
Target sequence (chain): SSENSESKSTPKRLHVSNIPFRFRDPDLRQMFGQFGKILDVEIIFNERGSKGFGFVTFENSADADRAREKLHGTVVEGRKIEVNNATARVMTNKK
GUAAUGUAUAUAGUCGUAUAUGUAUUCUAGCAAGAAAAACAUAUUUAUUUUGACAAAGGGGAACACUGACUUUCUGAAGGAUUCAGAAAGAACCUUAGUGAAAGGUUCUC: 0.414
UAAUGCUAUCUGAAAAAUGUGUUUAUAUUAUAUUUUCAGAGCUGCAAUUCUUAUUCGCCAUUUCAAUACCUAGAGAUAGAGAGUCUUGUAUUUGAAGCCACACACACUGG: 0.444
GAGAAUGUAUGGAAAUGCAUGUAUGUCCAGGCAGAAGUUUGCUACAGGAGUGAGGCCCUCAUGGAGAACCUCUGUUAAGGCAAUGUGGAAGGGGAAGCCCCCACACAGAG: 12.1
UCCCCAAGGAAGCCAUAAUGUGCAGAUGAACUGACCGAAGGAAAAGCUUGAGACAGCUUCCUGCGGGGGAGCCAGGUACAGAAGAGGCAGCUUGGGCUGACCCAGCAUCU: 0.686
AAGUGCUGGGUUCUCCAAGAGCGAUGGCGGCGUCUGUGUAGGUGCUCGCCCACCGUUACCCUCUUCUUGUAUCUGAAUAUCAGAAACUAGAAAGUCCAACAGUGACACUC: 0.167
UUGGCAAAAGGCUAACACCUGACUUUAGAAAAUGCUGAUUUGAGAACAAAAGGAAAGGUCUUUUUUCACUGCUUAAAGUGGGGUCACUUUGAUACCUUUGCGGUCAUGUC: 0.626
AGGUUAAACAAAAGCAUAUUUUAGAAACAGACAAAAGCCAACUGAAAAUCGUGGAUGAAUAGUUACUCUGGACAGGACUUUUGACAUGUCUUGCUCUGUGGAAUUUUGUG: 2.16
CCCUUGAAAUCCUAAUCUAAGACACUGCUUGAGUCCAAGGCAACCCUCAAUGAGACUAAGACUUGUGUUGGCUUUUUAAUAUCCUAGUUAGAGAGAAAUUGUAGCACAUU: 0.752
AAACAUACCUUUUUCCUCUUUAAAAAAAAAGAUAUACUCAUUUUUUUAUUUUAUGUGUAUGACUGUUUGCCUACGUGUAUAUAUGUGCACCACCUGUGUGCCUGGUGUCU: 0.472
UGGGGUCAGCUUUCACGGUCGCUUUUCCCUUCCUCACCACCCACCACAGCCCACCUUGCAUGCAUGGCCAGCCCCUCCACUCCAGCCUGAGCCAUGUGUGCCCCUGCGGG: 11.8
CCCAACAGUAGUGCUUUAUGGUCAGUAUUCUAUGUGGAGACCUUGCACCUUGUAAUCAUCAAUACAUCCACCAAAAAUAUAUAAUGUACCAUAUAUAUUAAUAGUCAACA: 0.816
GUGAUCUUUUAGCAUGUGCUUUUAUAAAAAGUGGUAGCUCCAGAUGAUAUAGCAAUCUACCUUAUAUAGAGCCUUCAGAAACUGUGAGUGGAAGUGAGUGAAGCGUAUGA: 12.6

Repeated from above (block 4):
UUGGCAAAAGGCUAACACCUGACUUUAGAAAAUGCUGAUUUGAGAACAAAAGGAAAGGUCUUUUUUCACUGCUUAAAGUGGGGUCACUUUGAUACCUUUGCGGUCAUGUC: 0.626
UGGGGUCAGCUUUCACGGUCGCUUUUCCCUUCCUCACCACCCACCACAGCCCACCUUGCAUGCAUGGCCAGCCCCUCCACUCCAGCCUGAGCCAUGUGUGCCCCUGCGGG: 11.8
GAGAAUGUAUGGAAAUGCAUGUAUGUCCAGGCAGAAGUUUGCUACAGGAGUGAGGCCCUCAUGGAGAACCUCUGUUAAGGCAAUGUGGAAGGGGAAGCCCCCACACAGAG: 12.1
AAACAUACCUUUUUCCUCUUUAAAAAAAAAGAUAUACUCAUUUUUUUAUUUUAUGUGUAUGACUGUUUGCCUACGUGUAUAUAUGUGCACCACCUGUGUGCCUGGUGUCU: 0.472
UCCCCAAGGAAGCCAUAAUGUGCAGAUGAACUGACCGAAGGAAAAGCUUGAGACAGCUUCCUGCGGGGGAGCCAGGUACAGAAGAGGCAGCUUGGGCUGACCCAGCAUCU: 0.686
AAGUGCUGGGUUCUCCAAGAGCGAUGGCGGCGUCUGUGUAGGUGCUCGCCCACCGUUACCCUCUUCUUGUAUCUGAAUAUCAGAAACUAGAAAGUCCAACAGUGACACUC: 0.167
